Results gathered from unrelated publications.
Protocols differ between the studies behind these lines. Values joined by “and” are separate records of one study, mostly repeats; a detail may differ. Numbers after ± are the reported error.

| SMILES | cell line | test | conditions | scale | endpoint | value |
| --- | --- | --- | --- | --- | --- | --- |
| CC(=O)N[C@@H](CC(=O)O)C(=O)N[C@@H](CC(C)C)C(=O)N[C@@H](C)C(=O)N[C@@H](CC(=O)O)C(=O)COC(=O)c1c(C)cccc1C | THP-1 cells, LPS-primed | pyroptosis, LDH release | 25 µM, LPS 1 µg/mL, 4 h, together with: nigericin 5 µM, 2 h | – | cell lysis | 88.5% |
| C=CC(=O)N1CCCC(n2c(=O)c3ncccc3n(Cc3ccc(Oc4ccccc4)cc3)c2=O)C1 (stereo not drawn) | OCI-LY19 | annexin V/PI flow cytometry | 100 nM, 72 h, Q4 quadrant | – | viable cells | 83.7% |
| C=C(NC(=O)c1csc(-c2ccc(NC(=O)CCCCCBr)cc2)n1)C(=O)NC(=C)C(=O)OC | Calu-1 | cell growth or viability | – | – | EC50 | 3.1 µM |
| CC12CCCC(NC(=O)c3ccc4ccccc4c3)(C1)C1CC(C)(C)C1CC2 (stereo not drawn) | HT-29 | cell growth or viability, CCK-8 | 300 µM | – | inhibition | 61.5% |
| C#CCCCC(F)/C=C/C(=O)NC1(c2ccc(-c3nc4ccn5c(=O)[nH]nc5c4cc3-c3ccccc3)cc2)CCC1 (stereo not drawn) | T47D MK-2206-resistant | cell viability | 72 h | baseline: EC50 resistant over wild-type T47D | resistance fold | 1.6 |
| CC(=O)N[C@@H](CC(=O)O)C(=O)N[C@@H](Cc1ccc(I)cc1)C(=O)N[C@@H](C)C(=O)N[C@@H](CC(=O)O)C(=O)COC(=O)c1c(C)cccc1C | THP-1 cells, LPS-primed | pyroptosis, LDH release | 25 µM, LPS 1 µg/mL, 4 h, together with: nigericin 5 µM, 2 h | – | cell lysis | 48.1% and 35.2% |
| O=C(CNC(=O)c1ccc(Cl)c(C(F)(F)F)c1)Nc1ccc2[nH]nc(/C=C/c3ccccn3)c2c1 | BaF3 | cell growth or viability, CCK-8 | – | – | GI50 | > 10 µM |
| CCN(C(=O)c1cc(F)ccc1Oc1nncnc1N1CCC2(C1)CN([C@H](CCCN(C)CCOC)C(C)C)C2)C(C)C | A2780 | cell growth or viability | 7 days | – | GI50 | > 10 µM |
| CNS(=O)(=O)Nc1nccc(Cc2c(C)c3ccc(Oc4ncccc4F)cc3oc2=O)c1F | LS174T | cell viability | 7 days | – | IC50 | 0.00623 µM |
| N#C[C@@H]1CC(F)(F)CN1C(=O)CNC(=O)c1ccnc2ccc(OCCCN3CCN(C(=O)CCc4ccc(O)c(CN5CCN6CC(=O)[O][Al-]([18F])([O]C(=O)C5)[O]c5ccc(CCC(=O)N7CCN(CCCOc8ccc9nccc(C(=O)NCC(=O)N%10CC(F)(F)C[C@H]%10C#N)c9c8)CC7)cc5C6)c4)CC3)cc12 (stereo partly drawn) | HT1080 cells expressing human FAP | – | 90 min, 37 °C | – | internalized fraction | 85.8 ± 1.6% |
| CCC(=CCc1c(O)cc2c(c1O)C(=O)CC(c1ccc(OC)cc1O)O2)CC (stereo not drawn) | HeLa | cell growth or viability, MTT | 1.563 µM, 48 h | – | inhibition | 4.39% |
| C[C@@H]1CC[C@@H]([C@](O)(CNCc2ccccc2F)COCc2ccccc2)[C@H](OCc2ccccc2)C1 | A2780 | cell growth or viability, MTT | 30 µM, 72 h | – | inhibition | 100% |
| O=S(=O)(Nc1ccc(OC(F)(F)F)cc1)N1CCCC(C2c3ccccc3CCc3ccccc32)C1 (stereo not drawn) | D425 | CellTiter | concentration not given, 72 h | – | cell proliferation | decreased |
| COc1ccc(S(=O)(=O)NC23CCCC(C)(CCC4C2CC4(C)C)C3)cc1 (stereo not drawn) | HT-29 | cell growth or viability, CCK-8 | 10 µM | – | inhibition | < 50% |
| CCC(=CCc1c(O)cc2c(c1O)C(=O)CC(c1ccc(O)cc1OC)O2)CC (stereo not drawn) | HeLa | cell growth or viability, MTT | 6.25 µM, 48 h | – | inhibition | 19.8% |
| O=S(=O)(N[C@H]1CCO[C@@H](C2c3ccc(F)cc3CCc3cc(F)ccc32)C1)c1ccc(OC(F)(F)F)cc1 | D425 | immunoblot | concentration not given, 24 h | – | cleaved caspase 9 level | increased |
| COc1ccc2c(CNc3ccc(C)cc3)cc(=O)oc2c1 | COS-7 (untransfected) | – | 500 µM, unit not given | baseline: 3 µM ionomycin | calcium mobilisation signal | 2.59 ± 1.02 |
| Cc1ncsc1-c1ccc(C(C)NC(=O)C2CC(O)CN2C(=O)C(NC(=O)CCCCCCCCCCN2CCCC(Nc3ncc(Cl)c(Nc4ccccc4S(=O)(=O)C(C)C)n3)C2)C(C)(C)C)cc1 (stereo not drawn) | 22Rv1 | RNA-seq, measured: NPIPB3 mRNA | concentration not given | baseline: DMSO | log2 fold change | -1.22 |

Repeated from above:
| SMILES | cell line | test | conditions | scale | endpoint | value |
| --- | --- | --- | --- | --- | --- | --- |
| C[C@@H]1CC[C@@H]([C@](O)(CNCc2ccccc2F)COCc2ccccc2)[C@H](OCc2ccccc2)C1 | A2780 | cell growth or viability, MTT | 30 µM, 72 h | – | inhibition | 100% |
| O=S(=O)(Nc1ccc(OC(F)(F)F)cc1)N1CCCC(C2c3ccccc3CCc3ccccc32)C1 (stereo not drawn) | D425 | CellTiter | concentration not given, 72 h | – | cell proliferation | decreased |
